Measured values gathered from unrelated publications.
Lines come from different studies, so protocols differ. Numbers after ± are the reported error.

COc1cccc2c1CCCC2CCCN1CCN(C2CCCCC2)CC1 (centres unmarked)
half-life (CD-1 mouse, male, lung; intraperitoneal, 1 mg/kg): 150 min

C[C@]1(CO)Cc2ncn(-c3ccc(C#N)c(Cl)c3)c2C(=O)O1
half-life (healthy Japanese adults, plasma; 80 mg single dose): 354 min

COc1cc2c(cc1OC)CN(CCc1ccc(NC(=O)c3cccc4c(=O)c5cccc(OC)c5[nH]c34)cc1)CC2
half-life (CD-1 mouse, male, plasma; intraperitoneal, 30 mg/kg): 1120 min

Cn1ncc(-c2nc(N[C@H]3CC[C@H](N)CC3)ncc2Cl)c1CC1CC1
half-life (HPLC-MS/MS; patients, plasma; oral, 21 mg, day 5): 2280 min

CCC[C@@](N)(CO)CCc1ccc(OCCCCCC(C)C)cc1
half-life (male hound dog, plasma; intravenous, 1.0 mg/kg, median): 1170 min

CC(C)C[C@@H](NC(=O)[C@H](Cc1ccccc1)NC(=O)CNC(=O)[C@@H](C)NC(=O)[C@H](Cc1ccc(O)cc1)NC(=O)[C@@H]1CCCN1C(=O)[C@@H]1CCCN1C(=O)c1ccc[n+](C)c1)C(=O)O
half-life (HPLC-UV; rat mid-brain homogenate; 100 µM, 37 °C): 12 min

CC/C(=C(\c1ccccc1)c1ccc(OCCN(C)C)cc1)c1ccccc1
half-life (CD-1 mouse, male, lung; intraperitoneal, 3 mg/kg): 398 min

[Cl][Ru-]([Cl])([Cl])[Cl].[Na+].c1ccc2[nH]ncc2c1.c1ccc2[nH]ncc2c1
half-life (ICP-MS, measured: total ruthenium; advanced solid tumour patients, plasma; iv infusion, 20 mg/m2, cycle 1 cohort mean): 7680 min

CCC(CNc1nc(-c2cn3ccnc3cc2C)nc2ccccc12)c1ccccc1 (centres unmarked)
half-life (LC-MS parent depletion; human liver microsomes): 9 min

CC(C)CC(=O)OC[C@H]1O[C@@](C#N)(c2ccc3c(N)ncnn23)[C@H](O)[C@@H]1O
half-life (hepatocyte-free incubation solution control): > 371 min

CCCCCCCC(=O)N[C@@H](CCCCN)C(=O)N[C@@H](CCCCN)C(=O)N[C@@H](C)C(=O)N[C@@H](CC(C)C)C(=O)N[C@@H](CCCCN)C(=O)N[C@@H](CC(C)C)C(=O)N[C@@H](C)C(=O)N[C@@H](CCCCN)C(=O)N[C@@H](CCCCN)C(=O)N1CCC[C@H]1C(=O)N[C@@H](CC(C)C)C(=O)N[C@@H](CCCCN)C(=O)N[C@@H](CC(C)C)C(=O)N[C@@H](CC(C)C)C(=O)N[C@@H](CCCCN)C(N)=O
half-life (mouse ICR CD1 female, whole blood; intravenous bolus, 1 mg/kg): 4.8 ± 1.8 min

Excerpt of the above:
CCC[C@@](N)(CO)CCc1ccc(OCCCCCC(C)C)cc1
half-life (male hound dog, plasma; intravenous, 1.0 mg/kg, median): 1170 min
